Measurements of several laboratories.

Compound	organism	assay	test system	conditions	MIC
CC(C)[C@H](NC(=O)[C@H](CCCNC(=N)N)NC(=O)[C@H](Cc1c[nH]c2ccccc12)NC(=O)[C@H](CCCNC(=N)N)NC(=O)[C@H](Cc1c[nH]c2ccccc12)NC(=O)[C@H](Cc1c[nH]c2ccccc12)NC(=O)[C@H](Cc1c[nH]c2ccccc12)NC(=O)[C@H](CCCNC(=N)N)NC(=O)[C@H](Cc1c[nH]c2ccccc12)NC(=O)[C@@H](N)CCCNC(=N)N)C(N)=O	Candida tropicalis	broth microdilution	CGMCC 2.192, RPMI 1640-MOPS	48 h, 30 °C	4 µM
CC(C)C[C@@H](NC(=O)[C@H](C)NC(=O)CNC(=O)[C@@H](NC=O)C(C)C)C(=O)N[C@@H](C)C(=O)N[C@@H](C(=O)N[C@H](C(=O)N[C@@H](C(=O)N[C@@H](Cc1c[nH]c2ccccc12)C(=O)N[C@H](CC(C)C)C(=O)N[C@@H](Cc1ccc2cc[nH]c2c1)C(=O)N[C@H](CC(C)C)C(=O)N[C@@H](Cc1c[nH]c2ccccc12)C(=O)N[C@H](CC(C)C)C(=O)N[C@@H](Cc1c[nH]c2ccccc12)C(=O)NCCO)C(C)C)C(C)C)C(C)C	Streptococcus agalactiae	broth microdilution	JCM 5671		2.1 µM
CC[C@H](C)[C@H](NC(=O)[C@H](CCCNC(=N)N)NC(=O)[C@H](Cc1c[nH]c2ccccc12)NC(=O)[C@H](CCCNC(=N)N)NC(=O)[C@H](Cc1c[nH]c2ccccc12)NC(=O)[C@H](Cc1c[nH]c2ccccc12)NC(=O)[C@H](Cc1c[nH]c2ccccc12)NC(=O)[C@H](CCCNC(=N)N)NC(=O)[C@H](Cc1c[nH]c2ccccc12)NC(=O)[C@H](CCCNC(=N)N)NC(=O)CN)C(N)=O	Candida albicans	broth microdilution	CGMCC 2.209, RPMI 1640-MOPS	48 h, 30 °C, together with: NaCl 150 mM	32 µM
O=C(O)CNC(=O)CO/N=c1\cc2n(-c3ccc(Cl)cc3)c3ccccc3nc-2cc1Nc1ccc(Cl)cc1	Neisseria gonorrhoeae	bacterial growth	700825, streptomycin-resistant	24 h	7.5 µM
CC[C@H](C)[C@H](NC(=O)[C@H](Cc1ccccc1)NC(=O)[C@@H](NC(=O)[C@H](CO)NC(=O)[C@@H](N)CCCNC(=N)N)[C@@H](C)CC)C(=O)N[C@@H](CCCCN)C(=O)N[C@@H](Cc1ccc(O)cc1)C(=O)N[C@@H](CCCCN)C(=O)N[C@@H](CO)C(=O)N[C@@H](CCCCN)C(=O)N1CCC[C@H]1C(=O)N[C@@H](Cc1ccccc1)C(=O)N[C@@H](CS)C(=O)N[C@@H](CCC(=O)O)C(=O)N[C@@H](CCCCN)C(=O)N[C@@H](CC(C)C)C(=O)N[C@@H](CC(C)C)C(=O)N[C@@H](CO)C(=O)N[C@@H](Cc1c[nH]c2ccccc12)C(=O)N[C@H](C(=O)N[C@@H](CCCCN)C(=O)N[C@@H](CO)C(=O)O)C(C)C	Micrococcus luteus		NCTC 2665		12.5 µg/mL
CC[C@H](C)[C@H](NC(=O)[C@H](CCCNC(=N)N)NC(=O)[C@H](Cc1c[nH]c2ccccc12)NC(=O)[C@H](CCCNC(=N)N)NC(=O)[C@H](Cc1c[nH]c2ccccc12)NC(=O)[C@H](Cc1c[nH]c2ccccc12)NC(=O)[C@H](Cc1c[nH]c2ccccc12)NC(=O)[C@H](CCCNC(=N)N)NC(=O)[C@H](Cc1c[nH]c2ccccc12)NC(=O)[C@@H](N)CCCNC(=N)N)C(N)=O	Candida albicans	broth microdilution	56467, RPMI 1640-MOPS	48 h, 30 °C	16 µM
CC(C)C[C@@H]1NC(=O)[C@@H](Cc2ccccc2)NC(=O)[C@H](CCN)NC(=O)[C@@H](NC(=O)[C@H](CCN)NC(=O)[C@@H](N)[C@@H](C)O)CCNC(=O)[C@H]([C@@H](C)O)NC(=O)[C@H](CCN)NC(=O)[C@H](CCN)NC1=O	Escherichia coli	rifampicin MIC with synergist, checkerboard	BW25113 mcr-1	concentration not given, together with: rifampicin	0.75 µg/mL
C[C@@H](O)[C@H]1C(=O)N2C(C(=O)O)=C(SCCN=CN)C[C@H]12	Klebsiella pneumoniae		K2	at emergence of KPC-137, together with: ceftazidime-avibactam 4/1	64 µg/mL
CC(C)C[C@H](NC(=O)[C@H](CCCNC(=N)N)NC(=O)[C@H](Cc1c[nH]c2ccccc12)NC(=O)[C@H](CCCNC(=N)N)NC(=O)[C@H](Cc1c[nH]c2ccccc12)NC(=O)[C@H](Cc1c[nH]c2ccccc12)NC(=O)[C@H](Cc1c[nH]c2ccccc12)NC(=O)[C@H](CCCNC(=N)N)NC(=O)[C@H](Cc1c[nH]c2ccccc12)NC(=O)[C@H](CCCNC(=N)N)NC(=O)CN)C(N)=O	Candida tropicalis	broth microdilution	CGMCC 2.192, RPMI 1640-MOPS	48 h, 30 °C	4 µM
CC1(C)SC2C(NC(=O)C(NC(=O)C3=C(O)C(c4ccccc4)NC3=O)c3ccccc3)C(=O)N2C1C(=O)O (stereo not shown)	Escherichia coli	broth microdilution	Keio mutant JW0587-1	18 h, enterobactin-related gene	25 µg/mL
CC[C@H](C)[C@H](NC(=O)[C@H](CC(N)=O)NC(=O)[C@H](Cc1ccccc1)NC(=O)[C@H](CCCNC(=N)N)NC(=O)[C@H](CCCNC(=N)N)NC(=O)[C@@H](N)CCCCN)C(=O)N[C@@H](CCCCN)C(=O)N[C@@H](CC(C)C)C(=O)N[C@@H](Cc1c[nH]c2ccccc12)C(=O)N[C@@H](CCCCN)C(=O)N[C@H](C(=O)N[C@@H](Cc1ccccc1)C(=O)O)[C@@H](C)O	Micrococcus luteus		NCTC 2665		25 µg/mL
CO/N=c1\cc2n(-c3ccc(Cl)cc3)c3ccccc3nc-2cc1Nc1ccc(Cl)cc1	Neisseria gonorrhoeae	bacterial growth	700825, streptomycin-resistant	24 h	> 30 µM
N=C(N)NCCC[C@H](NC(=O)[C@H](Cc1c[nH]c2ccccc12)NC(=O)[C@H](CCCNC(=N)N)NC(=O)[C@H](Cc1c[nH]c2ccccc12)NC(=O)[C@H](Cc1c[nH]c2ccccc12)NC(=O)[C@H](Cc1c[nH]c2ccccc12)NC(=O)[C@H](CCCNC(=N)N)NC(=O)[C@H](Cc1c[nH]c2ccccc12)NC(=O)[C@@H](N)CCCNC(=N)N)C(=O)N[C@@H](Cc1c[nH]c2ccccc12)C(N)=O	Candida albicans	broth microdilution	CGMCC 2.209, RPMI 1640-MOPS	48 h, 30 °C, together with: MgCl2 1 mM	16 µM
CC1(C)SC2C(NC(=O)C(NC(=O)C3=C(O)C(Cc4ccsc4)NC3=O)c3ccccc3)C(=O)N2C1C(=O)O (stereo not shown)	Escherichia coli	broth microdilution	isolate IU, CTX-M-14, TEM-1	no clavulanic acid	> 200 µg/mL
CC[C@H](C)[C@H](NC(=O)[C@H](CCCCN)NC(=O)[C@@H](NC(=O)[C@H](Cc1ccc(O)cc1)NC(=O)[C@H](CCCCN)NC(=O)[C@H](CCCCN)NC(=O)CNC(=O)[C@H](CCCCN)NC(=O)[C@@H](NC(=O)[C@H](C)NC(=O)[C@H](CC(C)C)NC(=O)[C@H](Cc1c[nH]c2ccccc12)NC(=O)CNC(=O)[C@@H](NC(=O)[C@H](Cc1ccccc1)NC(=O)[C@H](CCCCN)NC(=O)[C@H](CC(C)C)NC(=O)[C@H](Cc1ccccc1)NC(=O)[C@H](C)NC(=O)CNC(=O)[C@@H](N)CCSC)C(C)C)[C@@H](C)O)C(C)C)C(=O)N[C@@H](C)C(=O)N[C@@H](Cc1c[nH]c2ccccc12)C(=O)N[C@@H](CC(=O)O)C(=O)N[C@@H](Cc1c[nH]cn1)C(=O)N[C@@H](CCCCN)C(=O)NCC(=O)N[C@H](C(=O)N[C@H](C(=O)N[C@@H](CCSC)C(=O)N[C@@H](CCCCN)C(=O)N[C@@H](Cc1c[nH]c2ccccc12)C(=O)N[C@@H](CC(C)C)C(=O)N[C@@H](CC(N)=O)C(=O)N[C@@H](C)C(=O)NCC(=O)N[C@@H](CCC(N)=O)C(=O)N[C@H](C(=O)N[C@@H](Cc1ccccc1)C(=O)N[C@H](C(=O)N[C@@H](Cc1c[nH]c2ccccc12)C(=O)N[C@H](C(=O)N[C@@H](Cc1ccc(O)cc1)C(=O)N[C@@H](CCC(=O)O)C(=O)N[C@@H](CCC(N)=O)C(=O)N[C@H](C(=O)N[C@@H](CCCCN)C(=O)N[C@@H](CCCCN)C(=O)N[C@@H](CC(C)C)C(=O)N[C@@H](Cc1c[nH]c2ccccc12)C(=O)N[C@H](C(=O)O)[C@@H](C)O)[C@@H](C)CC)C(C)C)[C@@H](C)O)[C@@H](C)O)[C@@H](C)CC)[C@@H](C)O	Paenibacillus polymyxa	broth microdilution		37 °C	10.4 µg/mL
Cc1c2ccncc2c(C)c2c1[nH]c1ccccc12	Candidozyma auris	inhibitor	276	24 h	128 µg/mL
C[C@H](NC(=O)CO/N=c1\cc2n(-c3ccc(Cl)cc3)c3ccccc3nc-2cc1Nc1ccc(Cl)cc1)C(=O)OC(C)(C)C	Neisseria gonorrhoeae	bacterial growth	700825, streptomycin-resistant	24 h	> 30 µM
N=C(N)NCCC[C@H](NC(=O)[C@H](Cc1c[nH]c2ccccc12)NC(=O)[C@H](CCCNC(=N)N)NC(=O)[C@H](Cc1c[nH]c2ccccc12)NC(=O)[C@H](Cc1c[nH]c2ccccc12)NC(=O)[C@H](Cc1c[nH]c2ccccc12)NC(=O)[C@H](CCCNC(=N)N)NC(=O)[C@H](Cc1c[nH]c2ccccc12)NC(=O)[C@@H](N)CCCNC(=N)N)C(=O)N[C@@H](Cc1ccccc1)C(N)=O	Candida albicans		CGMCC 2.209	no added salts	8 µM
CC(C)CC1NC(=O)C(C(=O)NC(C(=O)NC2C(=O)N3C2SC(C)(C)C3C(=O)O)c2ccccc2)=C1O (stereo not shown)	Escherichia coli	broth microdilution	Keio mutant JW0146-2	18 h, ferric hydroxamate uptake gene	50 µg/mL
